{"data": "Results of several laboratories", "note": "Protocols differ between the studies behind these lines."}
{"Compound": "Nc1nc2c(ccc3ccccc32)s1", "system": "mouse, plasma", "conditions": "intraperitoneal, 10 mg/kg, 24 h", "concentration": "500 nM"}
{"Compound": "Cc1cccc(C)c1CN1CCn2cc(O)c(=O)cc2C1", "system": "rat, plasma", "conditions": "oral, 100 mg/kg, 4 h, unbound", "concentration": "249 nM"}
{"Compound": "N[C@@H](CC(=O)O)Cn1nnc(-c2ccc(Oc3ncc(Cl)cc3F)cc2)n1", "system": "human, blood", "conditions": "14 days after first dose, all dose groups", "concentration": "~20 ng/mL"}
{"Compound": "CC(C)NC(=O)c1nn(-c2ccc(Cl)cc2)c(=O)c2c(N)scc12", "system": "female mouse, brain", "conditions": "intraperitoneal, 5 mg/kg, 1 h, single dose", "concentration": "> 2000 nM"}
{"Compound": "O=c1cc2n(cc1O)CCN(Cc1ccccc1Cl)C2", "system": "rat, brain", "conditions": "oral, 100 mg/kg, 4 h, unbound", "concentration": "285 nM"}
{"Compound": "S=C(NCCCc1c[nH]cn1)NCCCN(Cc1ccc(Cl)c(Cl)c1)c1ccc(Br)cn1", "system": "male C57BL/6 mouse, plasma", "conditions": "intraperitoneal, 30 mg/kg, 30 min", "concentration": "2690 ng/mL"}
{"Compound": "O=c1cc2n(cc1O)CCN(Cc1ccccc1)C2", "system": "rat, brain", "conditions": "oral, 100 mg/kg, 4 h, unbound", "concentration": "564 nM"}
{"Compound": "Cc1cc(Oc2cncnc2)cc(C(=O)Nc2ccc(F)cn2)n1", "system": "male Sprague-Dawley rat, brain", "conditions": "oral, 10 mg/kg, 1 h, unbound", "concentration": "201 nM"}
{"Compound": "C[C@@H]1CN(Cc2ccc3c(c2)c(=O)c(C(N)=O)cn3-c2ccc(F)cc2)C[C@H](C)O1", "system": "rat, brain", "conditions": "intraperitoneal, 30 mg/kg, 15 min, single dose", "concentration": "760 nM"}
{"Compound": "O=c1cc2n(cc1O)CCN(Cc1ccc(Cl)cc1Cl)C2", "system": "rat, brain", "conditions": "oral, 100 mg/kg, 4 h, unbound", "concentration": "430 nM"}
{"Compound": "O=c1cc(-c2ccccc2)oc2c(O)c(O)ccc12", "system": "male CD-1 mouse, brain", "conditions": "oral, 50 mg/kg, 4 h", "concentration": "~7 ng/g"}
{"Compound": "CSc1cc(C)nc(SC)c1NC(=O)CN1CCN(CCSc2nc3ccccc3[nH]2)CC1", "system": "mouse Crl:CD1 (ICR) female, cerebrum", "conditions": "intranasal repeated, 162 µg in 7 N HCl, 30 min, 7 days dosing", "concentration": "32 ng/g"}
{"note": "For quick reference, copied from above:"}
{"Compound": "O=c1cc2n(cc1O)CCN(Cc1ccccc1)C2", "system": "rat, brain", "conditions": "oral, 100 mg/kg, 4 h, unbound", "concentration": "564 nM"}
